{"data": "Experimental data pooled from the literature", "note": "Compare with care: the assays were run in different laboratories. ± marks the error that the study gave."}
{"Compound": "COc1ccc(NC(=O)c2cnn(-c3ccc([N+](=O)[O-])cc3)c2C(F)(F)F)cc1OC", "cell line": "LX-2", "test": "cell growth or viability, MTS", "conditions": "50 µM, 72 h", "inhibition": "4.78%"}
{"Compound": "CCOC(=O)c1cn(CC(c2c[nH]c3cc(Br)ccc23)c2c[nH]c3cc(Br)ccc23)c(C)c1C(=O)OC", "cell line": "human Fibroblast", "test": "cell growth or viability, MTS", "conditions": "20 µM, 24 h", "inhibition": "6.5%"}
{"Compound": "Cc1nc2c(F)cc(-c3nc(Nc4ccc(CNC(=O)CCCCCC(=O)NO)cc4)ncc3F)cc2n1C(C)C", "cell line": "SK-OV-3", "test": "cell growth or viability, CCK-8", "conditions": "0.3 µM, 48 h", "inhibition": "97.3%"}
{"Compound": "Nc1ncn([C@@H]2O[C@H](CO)[C@@H](O)[C@H]2O)c(=O)n1", "cell line": "AML blasts, primary, RUNX1-mutated", "test": "CD34+ blast expansion", "conditions": "270 nM, HUVEC co-culture", "inhibition": "0%"}
{"Compound": "Cc1[nH]c(=S)[nH]c(=O)c1/N=N/c1nnc(S)s1", "cell line": "Vero", "test": "cell viability, MTT", "conditions": "5.0 µg/mL", "inhibition": "20 ± 0.392%"}
{"Compound": "COc1cc(NC(=O)c2cnn(-c3ccc([N+](=O)[O-])cc3)c2C(F)(F)F)c(OC)cc1Cl", "cell line": "LX-2", "test": "cell growth or viability, MTS", "conditions": "50 µM, 72 h", "inhibition": "2.08%"}
{"Compound": "COCCn1cc(COc2cccc(Cc3cnc(NC(=O)C(C)c4ccc(CC(C)C)cc4)s3)c2)nn1 (stereo not shown)", "cell line": "HGC-27", "test": "cell viability, MTS", "conditions": "10 µM", "inhibition": "11.6 ± 6.6%"}
{"Compound": "CCc1ccc(OCc2nnc(SC3CCCC3=O)n2C(C)c2ccccc2)cc1 (stereo not shown)", "cell line": "STF3A reporter cells", "test": "Wnt STF3A reporter, inhibitor", "conditions": "10 µM, 24 h, viability-normalized", "inhibition": "64.2%"}
{"Compound": "Cc1c(CN(C)C(=O)/C=C/c2cnc3c(c2)CC(N)C(=O)N3)oc2ccccc12 (stereo not shown)", "cell line": "IMR-90", "test": "cell growth or viability, resazurin", "conditions": "30 µM, 72 h", "inhibition": "30%"}
{"Compound": "Cc1nc(=S)[nH]c(C)c1/N=N/c1nnc(S)[nH]1", "cell line": "Vero", "test": "cell viability, MTT", "conditions": "1.25 µg/mL", "inhibition": "15.1 ± 0.246%"}
{"Compound": "COCCn1cc(COc2cccc(Cc3cnc(NC(=O)CSc4nc(C)cc(C)n4)s3)c2)nn1", "cell line": "HGC-27", "test": "cell viability, MTS", "conditions": "10 µM", "inhibition": "6.8 ± 4.4%"}
{"Compound": "COc1cc([C@@H]2O[C@@H](c3cc(OC)c(O[C@@H]4O[C@H](CO)[C@@H](O)[C@H](O)[C@H]4O)c(OC)c3)[C@H](CO)[C@H]2CO)cc(OC)c1O", "cell line": "PCS-210-010 human pre-adipocytes", "test": "lipid accumulation, Oil Red O staining", "conditions": "5 µM, early differentiation", "how to read": "reference: vehicle", "inhibition": "> 50%"}
{"Compound": "Cc1nc(=S)[nH]c(C)c1/N=N/c1nnc(S)s1", "cell line": "Vero", "test": "cell viability, MTT", "conditions": "2.5 µg/mL", "inhibition": "15.2 ± 0.777%"}
{"note": "Some of these lines once more:"}
{"Compound": "Cc1[nH]c(=S)[nH]c(=O)c1/N=N/c1nnc(S)s1", "cell line": "Vero", "test": "cell viability, MTT", "conditions": "5.0 µg/mL", "inhibition": "20 ± 0.392%"}
{"Compound": "COCCn1cc(COc2cccc(Cc3cnc(NC(=O)CSc4nc(C)cc(C)n4)s3)c2)nn1", "cell line": "HGC-27", "test": "cell viability, MTS", "conditions": "10 µM", "inhibition": "6.8 ± 4.4%"}
